Measurements gathered from unrelated publications.
Target: 5-hydroxytryptamine receptor 2B (HTR2B, Homo sapiens, UniProt P41595)
Chain of UniProt P41595 (whole entry, looked up): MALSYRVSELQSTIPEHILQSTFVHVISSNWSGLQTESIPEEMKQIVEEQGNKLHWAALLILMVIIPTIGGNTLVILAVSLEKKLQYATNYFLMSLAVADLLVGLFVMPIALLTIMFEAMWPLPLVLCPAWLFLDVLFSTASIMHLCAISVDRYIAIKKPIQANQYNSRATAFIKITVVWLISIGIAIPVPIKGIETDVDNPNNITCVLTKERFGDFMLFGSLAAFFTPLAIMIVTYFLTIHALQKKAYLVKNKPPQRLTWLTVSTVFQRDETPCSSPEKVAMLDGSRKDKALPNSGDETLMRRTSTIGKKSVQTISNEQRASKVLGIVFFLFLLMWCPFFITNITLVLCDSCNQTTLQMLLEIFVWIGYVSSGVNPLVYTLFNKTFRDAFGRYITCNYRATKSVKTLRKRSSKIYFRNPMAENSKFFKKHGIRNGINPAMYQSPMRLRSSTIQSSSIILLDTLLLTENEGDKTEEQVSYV

With `O=C(NO)c1ccc(CN2CCCCc3ccccc32)c(F)c1` the inhibition was 48.2% (radioligand binding, radioligand displacement; 10 µM, mean of replicates).
`O=C(CN1CCO[C@H](COc2cccc(Cl)c2)C1)N1CCc2ccccc21` gave an inhibition of 88.8% (radioligand binding; concentration not given, with: [3H]LSD).
`CCS(=O)(=O)c1nc(S(=O)(=O)c2ccccc2Cl)c(N2CCN(C)C(=O)[C@H]2C)s1` gave an inhibition of 4.94% (10 µM).
For `COc1cc2c3c(c1OCc1ccc(Br)cc1)-c1cc4c(cc1CC3N(C)CC2c1ccccc1)OCO4` (stereo not drawn), inhibition read “inactive” (radioligand binding; 10 µM, with: [3H]LSD).
`CCN1/C(=C/C(C)=O)Sc2ccc(F)cc21` gave an inhibition of 39.1% (10 µM).
With `Cc1ccnc(C)c1OC[C@H]1CN(CCN2CCc3ccccc32)CCO1` the inhibition was 61.2% (radioligand binding; concentration not given, with: [3H]LSD).
`CCCC[C@H](NC(=O)[C@H](C)c1c(C)[nH]c2ccc(O)cc12)c1ncc(-c2cc3ccccc3nc2OC)[nH]1` gave an inhibition of 50% (1 µM).
With `O=C(CN1CCO[C@H](COc2ccccc2)C1)N1CCc2ccccc21` the inhibition was 74.4% (radioligand binding; concentration not given, with: [3H]LSD).
With `OCCCN1CC[C@@H]2C[C@H]1c1cc(-c3ccc(C(F)(F)F)cc3)ccc12` the inhibition was less than 50% (radioligand binding, PDSP competition binding; 10 µM).

Excerpt of the above:
For `COc1cc2c3c(c1OCc1ccc(Br)cc1)-c1cc4c(cc1CC3N(C)CC2c1ccccc1)OCO4` (stereo not drawn), inhibition read “inactive” (radioligand binding; 10 µM, with: [3H]LSD).
